Measurements gathered from unrelated publications.
Every numbered part comes from another study and shows a few of its results, in no order. Substitutions count along the parent as printed.

Series 1
Target: RNA binding protein fox-1 homolog 2, RRM domain, GST-SBP tag (RBFOX2, Homo sapiens, UniProt O43251-10, residues 100-194)
Technique: RNA Bind-n-Seq
Form: RNA
Sample: in vitro
Concentration: 365 nM
Notes: natural RNA segment, single round, ends assumed
Relative to: no-protein control
Reading: higher = stronger binding
Residues (chain): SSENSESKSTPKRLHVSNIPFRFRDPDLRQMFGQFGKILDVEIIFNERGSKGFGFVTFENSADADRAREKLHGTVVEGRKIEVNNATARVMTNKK
Strand | RBNS enrichment (R)
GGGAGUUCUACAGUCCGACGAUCGCAGCACAACCUGGAAAUGGUGGGCGAGAGUACCCGGCAGUGAUGCCCGCCGGCUCACCCUUCAGCUGCUGUCGGCCUCUGCUGCCCCUCCCCCAGCCCUUAGCACAGAGUGGAAUUCUCGGGUGCCAA | 0.329
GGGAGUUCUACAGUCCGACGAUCGAAUGUAGUUCCCUACUCAGGCUUUCGUAGUGAUUAGCUUACUAAGGAACUGAAAAUGGGCCCCUUGUACAAGCUGAGCUGCCCCGGAGGGAGGGAGGAGUUCCCUGGGCUGGAAUUCUCGGGUGCCAA | 0.718
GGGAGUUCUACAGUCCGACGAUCGCCCCAGCCCCAUCACCGAAACACAUACUCAAGAGCUCAAAUACCACUGCUCCCACCAGCGUACGGAUUAAGUUCAUCAGGCUUCCAUCGGCUGGAGCAUGGGACCAUAGUGGAAUUCUCGGGUGCCAA | 0.455
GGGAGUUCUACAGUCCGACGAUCACUAGGUGAUUAGGCCUAUUGGUAGAUAGCCAUUGUUGAACUACCUGGACCACAAUUUGUAAGCCAUUCUAAUACAUCCCCUUUAUAUGUAUUUUUUCAUUCUAUAAGUUUGGAAUUCUCGGGUGCCAA | 1.09
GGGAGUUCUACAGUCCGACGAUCUGACCACCUGUAACUCCUGUUCCAAAGGUUUCGAUACCUUCUGACCUCUGGGCACCAGGCGUGCACAUGGUAUACAGACAUAGGUGCAGACAAAACAUCUAUACGUACAGUGGAAUUCUCGGGUGCCAA | 0.224
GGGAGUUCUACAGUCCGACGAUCCUCAGUUGAAAGAUUUCUUCUUUGAAAGGUCAAGACCGUGAACUGAAAAAAGUGUUGGCCUUUUUGCGGGACCAGAUUUUUAAGAUAAAAUAAAUAUUUUUACUUCUGUCUGGAAUUCUCGGGUGCCAA | 0.654
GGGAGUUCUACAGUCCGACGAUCUCACUCACUCACUGGUGCUGGCCUAGCCCCAGUUCACUCUGGUGCCACAAUAAACCUGUAUCUAGCUUGUGCUCUGUGCCUCCCCGCUUUGCAUCCGGAAUGGUGGGACUUGGAAUUCUCGGGUGCCAA | 1.28
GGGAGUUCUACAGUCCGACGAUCUAGGCAGAUAUAUAUGCUAUCUUACAGCUAAUUAUGAAAUUGAAUGAAAAUCCAUUGUUAUCUUAGGGAUUAGUUUUGAAAAGCCCCCGUUUAUAUACAUUUGCCCUAACUGGAAUUCUCGGGUGCCAA | 1.89
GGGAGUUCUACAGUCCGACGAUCGAUUGUACUUGGAUAAAAAACAAUAAACUUUCACUAUAAAGCCAAUGAGAUUCAUAGGCUGUACAGUAUGGGCCCUUUUCUCUUAUUUUCUUACAUUUAUUUUUAUUGUUUGGAAUUCUCGGGUGCCAA | 0.599
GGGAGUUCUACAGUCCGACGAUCUGGAAUGGGUUCUGUGUUUGAAAGCUGUUAGAACACUAACCAGCAGGUUACUUCUCUCCGCAGGGGCUGAAGACAGAUGUGUCAGCCCAUGGGAACCAGCCUGGGCCCUAUGGAAUUCUCGGGUGCCAA | 0.381
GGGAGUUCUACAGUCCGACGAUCGCGACACCAGCUGCACUGGUCUUUUUCUCUCUAGACUCUUCACCGCCUGAGGACACUCCUGUCGUUGCUGCAGAAGCUGCUGCCCCUGUUCCAUCUGCUGUACUAACCAGUGGAAUUCUCGGGUGCCAA | 0.28
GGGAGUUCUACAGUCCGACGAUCUCUGUUUUUACAUUUACUGAAUAAGAUUUGAGUAAUGAAAGUCUGUAGUCUUAAAACUCUAAAACAGUUGUACUGCUUCCAAGCAGCAGUAUUUAUAGUAACGUAAGCUAUGGAAUUCUCGGGUGCCAA | 0.409

Series 2
Target: CCNB1, cyclin fold, Cln2 fusion (human)
Technique: yeast growth competition, sequencing
Sample: yeast
Notes: weak parent motif
Relative to: not given
Reading: higher = stronger binding
Parent: E2F7 docking peptide (human); SSAQRRLEIPSGG
Variant | normalised enrichment score
SSAQRRLEAPSGG [I9A] | 0.524
SSAQRALEIPSGG [R6A] | -0.304
SSAARRLEIPSGG [Q4A] | 0.323
SSAQRRLEIPAGG [S11A] | -0.133
SSAQRRLELPSGG [I9L] | 0.291
SSAQARAEIPSGG [R5A L7A] | 0.0832
SSAQRRLAIPSGG [E8A] | 0.631
SSAQKRLEIPSGG [R5K] | -0.402
SSAQKRLEFPSGG [R5K I9F] | 0.369
SSAQARLEIPSGG [R5A] | 0.593

Series 3
Target: ABI1, truncated, D143A, DHFR fusion (Arabidopsis thaliana)
Technique: DHFR PCA, deep sequencing
Sample: yeast
Notes: methotrexate growth selection, single substitutions
Together with: (+)-ABA 17 µM
Relative to: wild-type fitted maximum
Reading: higher = stronger binding
Parent: PYL1, truncated, DHFR fusion (Arabidopsis thaliana); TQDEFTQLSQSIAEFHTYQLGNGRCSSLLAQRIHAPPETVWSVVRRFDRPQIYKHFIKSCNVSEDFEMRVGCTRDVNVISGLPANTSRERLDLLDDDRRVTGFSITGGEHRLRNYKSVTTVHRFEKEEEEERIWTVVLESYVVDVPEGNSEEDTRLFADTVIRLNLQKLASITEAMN; partner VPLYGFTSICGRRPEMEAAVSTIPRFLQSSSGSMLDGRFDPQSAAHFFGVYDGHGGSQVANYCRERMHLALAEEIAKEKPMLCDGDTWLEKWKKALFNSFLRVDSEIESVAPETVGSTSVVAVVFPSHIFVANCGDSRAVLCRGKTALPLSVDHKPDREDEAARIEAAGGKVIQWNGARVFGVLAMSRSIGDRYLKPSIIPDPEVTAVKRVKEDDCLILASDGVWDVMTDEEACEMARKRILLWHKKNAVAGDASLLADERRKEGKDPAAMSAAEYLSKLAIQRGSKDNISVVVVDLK
Variant | relative binding score
L20V | 90.1%
H34G | 73.7%
T17H | 68.5%
L138R | 3.82%
L29N | 66.8%
N61L | 82.6%
E129K | 87.9%
E109T | 80%
D153H | 28.3%
S26L | 4.16%
A84F | 45.5%
F56T | 2.11%
Q31E | 42.6%
V40M | 0.0294%
E89L | -2.04%
H16E | -0.821%
K58C | 39.5%
Y18W | 84.1%
I133R | 81.3%

Series 4
Target: Max-binding protein MNT, bHLH-zipper, MAX partner unstated (MNT, Homo sapiens, UniProt Q99583, residues 220-300)
Technique: protein-binding microarray
Form: double-stranded DNA, one strand shown
Sample: in vitro
Concentration: not given
Notes: k-mer, scored over probes, only values ≥0.25
Reading: higher = stronger binding
Target sequence (chain): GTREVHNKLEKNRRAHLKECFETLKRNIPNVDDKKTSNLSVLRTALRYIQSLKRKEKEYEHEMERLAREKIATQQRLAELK
Strand | E-score
CACCATGC | 0.393
ATACACGC | 0.385
GGCACGCC | 0.319
CCCGTGAC | 0.324
AACACGCA | 0.324
ACACACGT | 0.415
ACGTGGAA | 0.43
CCGCGTGA | 0.426
AGACACGA | 0.288
ACGTGCGG | 0.418
CCGCATGA | 0.366
GGGCGGGA | 0.358
AACGTGTC | 0.398
AACCCACG | 0.372
CACGACCA | 0.304
CAACGTGA | 0.421
CATGGTGA | 0.29
CGCACACG | 0.393
CCGTGTGC | 0.251
ACATGGCA | 0.376
CATGGCTC | 0.307

Repeated from above (series 4):
Strand | E-score
ACGTGCGG | 0.418
CGCACACG | 0.393
ACATGGCA | 0.376
AACCCACG | 0.372
GGGCGGGA | 0.358
ATACACGC | 0.385
